Results collected from several papers.
A part holds a random share of what one study measured. Positions count from the first letter of the parent shown.

Study 1
Target: CCNB2, cyclin fold, Cln2 fusion (human)
Technique: yeast growth competition, sequencing
Sample: yeast
Notes: weak parent motif
Baseline: not given
Reading: higher = stronger binding
Starting sequence: CDKN1A docking peptide (human); SKACRRLFGPVDS
| Substitution | normalised enrichment score |
| --- | --- |
| SKAKRRLFGPVDS [C4K] | 0.163 |
| SKACRRLFGQVDS [P10Q] | 0.136 |
| SKACRRLFGPPDS [V11P] | -0.145 |
| SKACRRLFDPVDS [G9D] | -0.108 |
| SKACRELFGPVDS [R6E] | -0.257 |
| SKACARAFGPVDS [R5A L7A] | 0.088 |
| SKACRRMFGPVDS [L7M] | 0.54 |
| SKACRRLFGHVDS [P10H] | 0.125 |
| SKACRRLFGPWDS [V11W] | 0.407 |
| SKPCRRLFGPVDS [A3P] | 0.928 |
| SKAWRRLFGPVDS [C4W] | 0.334 |

Study 2
Target: RNA binding protein fox-1 homolog 2, RRM domain, GST-SBP tag (RBFOX2, Homo sapiens, UniProt O43251-10, residues 100-194)
Technique: RNA Bind-n-Seq
Form: RNA
Sample: in vitro
Tested at: 365 nM
Notes: natural RNA segment, single round, ends assumed
Baseline: no-protein control
Reading: higher = stronger binding
Constant ends, left off below: GGGAGUUCUACAGUCCGACGAUC … UGGAAUUCUCGGGUGCCAA
Target sequence (chain): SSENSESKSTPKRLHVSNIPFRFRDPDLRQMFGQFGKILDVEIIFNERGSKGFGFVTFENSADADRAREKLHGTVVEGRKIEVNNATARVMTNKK
| Oligonucleotide | RBNS enrichment (R) |
| --- | --- |
| CCAUCUUCCCAGGGCAGGACCACAGUGGUAAAUCCUAAGGAUGGCCCAGGUGGCCUGUGUGAGCGCCACUAGGCACCAGAAGGUGGCGCUCACGCUCUCGUCCUUAGGGA | 0.39 |
| CUCUCCACCUCCACCCCACCAGAGAGUAGCGAUUGCUUUUUAGUCUAUUUUGUUGUCAAUACAAUUUAAUAUCAAUCAGAGUAAUCCUUUGUACAUUGAGAGGAGGGGCU | 0.364 |
| GGACCGUGUAGAUAUAACUGGAUAUACGGAUUUUUCUCUUUGUGCAGGCUUCUUAUGCCGUUGGUAUACAGGGCAGGAAAGAGAGGAAUAAAGGGAGAGAGCAGUGUGGA | 0.468 |
| UUAGCAGACUGCAGUCAAUCCACAUUCAAUAAAAAGUAUAUAAUGCCCAUUUUUAUAUGCACGUUUUUAAACUUCCAAGUUCUGAAAAUUGUUUACUGGUUAUCUCUAUU | 1.15 |
| CCAGCACUCAGGAGGCAGAGGCAGGUGGAUCUUCGAGAUCAAGGCCAGCCUGGUCUAUAGAGUGAGUUCCAGGACAGCAGAGAAACCCUUCCAAAAACUAAGGAAGGAAG | 0.286 |
| UCUCCACAUGUCUGCUGACAAGUUAAAGAAUCUAGCAUAUCGCAUUUGGUUUUACUUGUUGAUUUUGAGCCUUAUUGUCACAAAACAGCCUAGCUGGAAUAUUGAUGCCA | 0.44 |
| AUGGGAGCUUAACUUUAUAAGGAAAUGUAUUUUGACACUGGUAUCUUAUUAAAGUAUUCUGAUCCUACCACUGCUGGUGGCUCUUAUUUCCUGUGGAUUUAUCAUGGGCU | 0.292 |
| UGCAGGGCCUGGCUUGUACUUGGUGUGUGCAAGGCCCAAUGGCAGCCUGCAUACCCAGCCUACUCUUGGGCCCACUUGGACGCGCUGGCAGGAGGCCUGGGUCUCACCAG | 0.872 |
| UCUCUAAGAGGUGUAUGAAAAACCCAUCUUGCAAAAGAGACCAAAAUAUUAGACACAAUCGUUCCCAUUCCUGACUCUUCAAUGGAAAAGGAAGGUACAGAUGUUUACAG | 0.239 |
| CAGGCCCUCAAGCCCAAGAGCCAUCCCAGGCCUGUUCAGGCCUCAGCUAAGCCUCUCUUCAUCUGGAAGAAGAGGCAAGGGGGCAGGAGACCAGGCUCUAGCUCUGGGCC | 0.269 |
| GUUUCUCCACAGUCCUCUUCUGGGCAAAUUCUUGUUUCUUCACAUGCUGGACUAGCUUAAGACCAAUGCAGUAGCUUAUUUCCAAGCCUUGCAAAGUAUAUAAUAUCUAA | 0.577 |
| AUGAUUUUAAGAAUUUGGCUUAAAAAUUGAUUGAUACAACGUAUUAUUUGUACUAAGAAGUAACUUGACCCAAAACACCUUUUAUGUUUGCUUAGGGUAUAUUUUUUCAG | 0.472 |

Study 3
Target: UBE2E1 UBC core domain (UniProt P51965)
Technique: yeast two-hybrid
Sample: yeast
Notes: mostly zero background
Baseline: not given
Reading: higher = stronger interaction
B1: RNF121 RING domain (UniProt Q9H920); chain MPTKHLSDSVCAVCGQQIFVDVSEEGIIENTYRLSCNHVFHEFCIRGWCIVGKKQTCPYCKEKVDLKRMFS
B2: RBCK1 RING domain (UniProt Q9BYM8); chain SLVLNTEPAECPVCYSVLAPGEAVVLRECLHTFCRECLQGTIRNSQEAEVSCPFIDNTYSCSGKLLEREIK
B3: RNF133 RING domain (UniProt Q8WVZ7); chain DEEINPNGDSCVICFERYKPNDIVRILTCKHFFHKNCIDPWILPHGTCPICKCDILKVLGIQ
| Sequence | lacZ reporter activity |
| --- | --- |
| KETIKKTTKPCPRCHVPVEKNGGCMHMKCPQPQCRLEWCWNCGCEWNRVCMG (PRKN RING domain (UniProt O60260)) | 0 |
| B1 (RNF121 RING domain) | 0 |
| B2 (RBCK1 RING domain) | 0 |
| AVPSGLEENLCKICMDSPIDCVLLECGHMVTCTKCGKRMNECPICRQYVIRAVHVF (RFFL RING domain (UniProt Q8WZ73)) | 0 |
| FDGDVDPDLKCALCHKVLEDPLTTPCGHVFCAGCVLPWVVQEGSCPARCRGRLSAKELN (PDZRN3 RING domain (UniProt Q9UPQ7)) | 0 |
| GSRLQEINDVCAICYHEFTTSARITPCNHYFHALCLRKWLYIQDTCPMCHQKVYIEDDIK (RNF139 RING domain (UniProt Q8WU17)) | 0 |
| B3 (RNF133 RING domain) | 9140 |
| GSDDEEIPFKCFICRQSFQNPVVTKCRHYFCESCALQHFRTTPRCYVCDQQTNGVFNPA (RNF113A RING domain (UniProt O15541)) | 0 |

Study 4
Target: Sal-like protein 4, full length isoform B (SALL4, Homo sapiens, UniProt Q9UJQ4-2, residues 1-616)
Technique: universal PBM
Form: double-stranded DNA, one strand shown
Sample: in vitro
Tested at: not given
Notes: 8-mer, flanks averaged, mean of replicates
Reading: higher = stronger binding
| Oligonucleotide | E-score |
| --- | --- |
| CCCCTTAA | -0.0901 |
| ACATGGTG | 0.145 |
| ACTAGCCT | 0.0316 |
| ACATTTCA | 0.293 |
| CGTCCTAA | -0.0325 |
| CTTATAAA | 0.272 |
| TAGTGTCA | 0.131 |
| GGAATGAC | -0.00965 |
| GCGGGCAC | -0.184 |
| ACGAAGCA | -0.019 |
| CCCTGCAA | -0.058 |
| ACATAGCA | 0.108 |
| CCCTAGGC | -0.162 |
| ACAGGGGA | -0.234 |
| CGTCCCCC | -0.303 |
| CGACTGCG | -0.178 |
| TAAATTGA | 0.271 |
| AGTGGCAA | 0.0454 |
| CAAGTGGG | -0.128 |
| GATCCTAC | -0.0973 |
| CTTCAGGA | -0.0612 |
| GACCATGA | -0.021 |
| CATACAGC | 0.0393 |
| ACACGAGG | -0.0759 |
| CGTTTAGA | -0.0048 |

Study 5
Target: Histone acetyltransferase KAT6A, winged helix 2, GST fusion (KAT6A, Homo sapiens, UniProt Q92794, residues 85-181)
Technique: protein binding microarray
Form: double-stranded DNA, one strand shown
Sample: in vitro
Tested at: not given
Notes: 8-mer, flanks averaged, mean of 2 arrays, mostly near background
Baseline: not given
Reading: higher = stronger binding
Target sequence (chain): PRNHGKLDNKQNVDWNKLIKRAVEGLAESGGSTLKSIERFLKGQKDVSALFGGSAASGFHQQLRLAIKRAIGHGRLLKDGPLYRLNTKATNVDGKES
| Oligonucleotide | E-score |
| --- | --- |
| AGTGTGAC | -0.146 |
| AGGTCTGC | -0.04 |
| AGTTGGAA | 0.0799 |
| GAAAGAGC | -0.129 |
| AGTTCAGG | -0.111 |
| GCTCAGAA | 0.0391 |
| GACCCTGA | -0.139 |
| GGCTGGTA | -0.0502 |
| CCGTGCCG | 0.0823 |
| CCACGCCC | -0.0628 |
| GACGCCGA | 0.148 |
| CTTAATGC | -0.0382 |
| AAAGGGTT | -0.129 |
| CCCACTAC | -0.021 |
| CACTGTCC | -0.0192 |
| CGGGGTAA | 0.00639 |
| GAGCAATC | 0.0824 |
| CAGGATTC | -0.0102 |
| AGACAGAG | 0.0573 |
| GCGTTAAC | 0.00856 |
| ATCTTTTG | -0.0981 |
| CGTACGAG | -0.146 |
| CAAGATGA | -0.0872 |

Study 6
Target: BATF2, bZIP domain (human)
Technique: DHFR protein complementation
Sample: yeast
Notes: single substitutions, most at no-binding floor
Baseline: wild-type JUN-FOS pair
Reading: higher = stronger binding
Starting sequence: JUN, bZIP domain (human); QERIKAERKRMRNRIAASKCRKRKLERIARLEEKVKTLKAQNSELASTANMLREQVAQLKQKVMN; partner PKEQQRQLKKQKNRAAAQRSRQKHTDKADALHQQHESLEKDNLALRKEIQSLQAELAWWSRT
| Substitution | binding fitness |
| --- | --- |
| Q55L | -0.661 natural log |
| A29H | -0.397 natural log |
| K34H | -0.362 natural log |
| S43I | -0.157 natural log |
| E32D | -0.562 natural log |
| E44N | -0.588 natural log |
| E32N | -0.801 natural log |
| L38V | -0.947 natural log |
| M51Q | -0.146 natural log |
| L59R | -1.23 natural log |
| K36T | -0.472 natural log |
| K39Q | -0.333 natural log |
| M51H | -0.293 natural log |
| T37K | -0.111 natural log |
| L52R | -1 natural log |
| R30S | -0.158 natural log |

Study 7
Target: Interferon regulatory factor 3, full length, phosphomimetic (IRF3, Homo sapiens, UniProt Q14653, residues 1-427, S386D/S396D/S398D/S402D/T404D/S405D)
Technique: protein-binding microarray
Form: double-stranded DNA, one strand shown
Sample: in vitro
Tested at: 2540 nM top
Notes: 60-bp whole probe
Together with: salmon DNA 0.4 mg/ml
Baseline: random background probes
Reading: higher = stronger binding
Constant ends, left off below: GCCTAGCAC … GTCTTGATTCGCTTGACGCTGCTG
Residues (chain): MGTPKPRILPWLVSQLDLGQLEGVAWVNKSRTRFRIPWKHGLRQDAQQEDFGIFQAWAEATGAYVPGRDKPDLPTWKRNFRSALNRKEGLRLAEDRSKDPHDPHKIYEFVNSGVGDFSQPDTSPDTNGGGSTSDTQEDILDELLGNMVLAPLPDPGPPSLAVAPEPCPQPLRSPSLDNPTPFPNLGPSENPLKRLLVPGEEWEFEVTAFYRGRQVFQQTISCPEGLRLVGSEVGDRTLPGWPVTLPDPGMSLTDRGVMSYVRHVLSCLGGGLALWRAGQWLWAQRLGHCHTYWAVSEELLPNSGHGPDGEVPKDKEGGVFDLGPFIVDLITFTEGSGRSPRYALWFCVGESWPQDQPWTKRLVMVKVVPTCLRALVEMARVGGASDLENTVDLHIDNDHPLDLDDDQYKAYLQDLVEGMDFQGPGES
| Oligonucleotide | fitted relative affinity [z-score] |
| --- | --- |
| GACGATCTCAGCATCGAGACGTGCTAG | 0.146 |
| GACGGTTTCGTCTTTCGGGACGTGCTA | 3.81 |
| TTAGAACTGAGTCTGGATTAGTGCTAG | -0.456 |
| TTAGGACAGGACTTTCGGTTAGTGCTA | 1.44 |
| GACGGACTGGGGTATCCGGACGTGCTA | -0.231 |
| GACGGTTTGGGGACTGGGGACGTGCTA | -0.315 |
| TTAGGTATCGGACTGGGCTAGTGCTAG | 1.12 |
| TCACTTTCCTTCTTGATACTGTGCTAG | 9.83 |
| TTAGGTCTCGGACTGGGTGAGTGCTAG | -0.419 |
| TTAGAGCTCAGTTTCGATTAGTGCTAG | 3.46 |
| GACGATTTGGGGTTTCGAGACGTGCTA | 0.66 |
| TCAAATTACCTTTTCACACTGTGCTAG | 3.6 |
| GACGTTTCCAGTTTCGAGACGTGCTAG | 4.76 |
| TAAGGTTCCCTTTTCCTTTAGTGCTAG | 7.78 |

Repeated from above (study 4):
| Oligonucleotide | E-score |
| --- | --- |
| CCCCTTAA | -0.0901 |
| CAAGTGGG | -0.128 |
| CCCTGCAA | -0.058 |
| CGACTGCG | -0.178 |
| CTTATAAA | 0.272 |
| ACATGGTG | 0.145 |
| GCGGGCAC | -0.184 |
| GATCCTAC | -0.0973 |
| ACTAGCCT | 0.0316 |
| TAGTGTCA | 0.131 |
| CGTTTAGA | -0.0048 |
| ACGAAGCA | -0.019 |
| ACATAGCA | 0.108 |
| TAAATTGA | 0.271 |
| ACACGAGG | -0.0759 |
